Results pooled from the literature.
Values joined by “and” are separate records of one study, mostly repeats; a detail may differ. ± gives the spread as reported.

The tissue uptake of N[C@@H](C[18F])C(=O)O is reported as at most 1 %ID/g (athymic nude mouse, non-bone tissues; intravenous, 110 min).
For COCCCOc1cc2c(cc1OC)-c1cc(=O)c(C(=O)O)cn1[C@H](C(C)C)C2, the tissue concentration was < 1000 ng/g and > 500 ng/g (CD-1 mouse, brain; oral, 10 mg/kg).
With O=c1cc(-c2ccc(O)cc2)oc2c([C@@H]3OC[C@H](O)[C@H](O)[C@H]3O)c(O)c([C@@H]3O[C@H](CO)[C@@H](O)[C@H](O)[C@H]3O)c(O)c12 the tissue concentration was 9.32 ng/g (UHPLC-MS/MS; C57BL/6J mouse, liver; oral, dose not given).
Cc1nc2ccc(OCc3ccc(C(F)(F)F)cc3)cc2[nH]1 has a tissue concentration of 3.9 ± 0.6 ng/g (Balb/c mouse, male, lungs; oral, 10 mg/kg, 72 h).
COc1cccc(OC)c1-c1cc(C(=O)NC2(C(=O)O)C3CC4CC(C3)CC2C4)nn1-c1ccc(C(=O)N(C)CCCN(C)CCCN(C)C(=O)CN2CCN(CC(=O)[O-])CCN(CC(=O)[O-])CCN(CC(=O)[O-])CC2)cc1C(C)C.[177Lu+3] (stereo not shown) gave a tissue uptake of 3.5 ± 0.6 %ID/g (SCID mouse HT-29 xenograft, small intestine; iv, 4 h).
For OCc1nc2ccc(NCc3ccc(C(F)(F)F)cc3)cc2[nH]1, the tissue concentration was 133 ± 26.8 ng/g (Balb/c mouse, male, heart; oral, 10 mg/kg, 6 h).
CSc1cc(C)nc(SC)c1NC(=O)CN1CCN(CCSc2nc3ccccc3[nH]2)CC1.Cl: tissue concentration “not detected” (mouse, olfactory bulb; intranasal, 50 µL in 0.01 N HCl daily for 7 days, 120 min after last dose, LLOQ 1 ng/g).
The tissue uptake of CC(C)NCCCC[C@@H]1NC(=O)[C@H](Cc2ccc(O)cc2)NC(=O)[C@H](Cc2ccccc2)NC(=O)CC[C@H](C(=O)N[C@@H](CCCCNC(C)C)C(=O)N[C@@H](CCCCNC(=O)[C@H](CCC(=O)O)NC(=O)[C@H](CCC(=O)O)NC(=O)[C@H](CCC(=O)O)NC(=O)CN2CCN(CC(=O)O)CCN(CC(=O)O)CCN(CC(=O)O)CC2)C(N)=O)NC(=O)CNC(=O)[C@H](Cc2ccc3ccccc3c2)NC(=O)[C@@H](CCCNC(=N)N)NC1=O [gallium-68 labelled] is reported as 0.36 %ID/g (mouse with Daudi xenograft, adrenals; intravenous, 1 h).
For CCc1c2c(nc3ccc(OC(=O)N4CCC(N5CCCCC5)CC4)cc13)-c1cc3c(c(=O)n1C2)COC(=O)[C@]3(O)CC, the tissue concentration was 15200 ± 7130 ng/g (mouse, colon; intraperitoneal, 50 mg/kg, 24 h).
With COc1cccc(OC)c1-c1cc(C(=O)NC2(C(=O)O)C3CC4CC(C3)CC2C4)nn1-c1ccc(C(=O)N(C)CCCN(C)CCCN(C)C(=O)CN2CCN(CC(=O)[O-])CCN(CC(=O)[O-])CCN(CC(=O)[O-])CC2)cc1C(C)C.[177Lu+3] (stereo not shown) the tissue uptake was 0.24 %ID/g (mouse, HT-29 xenograft, kidney; 72 h post injection).
